Experimental data pooled from the literature.
Compare with care: the assays were run in different laboratories.
Cell line: HFF

Structure (SMILES) = O=C(NCc1ccc(F)cc1)c1nc(NCCO)c2cccnc2c1O; effect on = cell growth or viability; technique = MTS; time = 7 days; quantity = CC50; result = > 50 µM
Structure (SMILES) = COc1ccc(O)c(-c2nc(-c3ccccc3)c(-c3ccccc3)n2-c2ccccc2)c1; technique = colorimetric viability; concentration = concentration not given; time = 72 h; notes = at anti-Trypanosoma effective doses; quantity = cytotoxicity; result = not toxic
Structure (SMILES) = COCCNc1nc(C(=O)NCc2ccc(F)cc2)c(O)c2ncccc12; effect on = cell growth or viability; technique = MTS; concentration = 10 µM; time = 7 days; quantity = viability; result = 98%
Structure (SMILES) = Nc1nc2c(ncn2COCCOC(=O)[C@@H](N)CS)c(=O)[nH]1; effect on = cell growth or viability; quantity = CC50; result = > 300 µM
Structure (SMILES) = CC(C)CCN(Cc1ccc(F)cc1)c1nc(C#N)nc(N2CCOCC2)n1; effect on = cell growth or viability; technique = MTS; time = 7 days; quantity = CC50; result = 65.2 µM
Structure (SMILES) = O=C(CCCN1C(=O)c2cccc3cccc(c23)C1=O)NO; technique = LDH release; concentration = 100 µM; time = 48 h; quantity = cytotoxicity; result = not toxic
Structure (SMILES) = C[C@H](N)C(=O)OCCOCn1cnc2c(=O)[nH]c(N)nc21; effect on = cell growth or viability; quantity = CC50; result = > 300 µM
Structure (SMILES) = COc1ccc(-c2nc(C(=O)NCc3ccc(C)cc3)c(O)c3ncccc23)c(OC)c1; effect on = cell growth or viability; technique = MTS; time = 7 days; quantity = CC50; result = 8.4 µM
Structure (SMILES) = N[C@H]1C[C@@H]1c1ccc(-c2cccc(O)c2)cc1; technique = MTT; concentration = 50 µM; time = 12 h; quantity = cytotoxicity; result = not toxic
Structure (SMILES) = C=C(C)[C@@H]1CCC=C2CC[C@]3(C)[C@H](CC[C@@H]4[C@@]5(C)CCCNC(C)(C)[C@@H]5CC[C@]43C)[C@H]21; effect on = cell growth or viability; technique = ATP luminescence; quantity = CC50; result = 14.9 µM
Structure (SMILES) = Nc1nc2c(ncn2COCCOC(=O)CCC(=O)OC[C@H](N)C(=O)O)c(=O)[nH]1; effect on = cell proliferation; notes = 10% FBS; quantity = CC50; result = > 300 µM
Structure (SMILES) = N#Cc1nc(N2CCOCC2)nc(N(Cc2ccc(F)cc2)CC2CCCNC2)n1 (centres unmarked); effect on = cell growth or viability; technique = MTS; time = 7 days; quantity = CC50; result = 61.1 µM
Structure (SMILES) = Nc1nc2c(ncn2COCCOC(=O)[C@@H](N)CO)c(=O)[nH]1; effect on = cell proliferation; notes = 10% FBS; quantity = CC50; result = > 300 µM
Structure (SMILES) = CC1OC2OC3C4=C(OC3(C)C12O)C(=O)c1c(O)cccc1C4=O (centres unmarked); effect on = cell growth or viability; technique = MTT; time = 48 h; quantity = CC50; result = 3.97 µg/mL

Repeated from above:
Structure (SMILES) = C=C(C)[C@@H]1CCC=C2CC[C@]3(C)[C@H](CC[C@@H]4[C@@]5(C)CCCNC(C)(C)[C@@H]5CC[C@]43C)[C@H]21; effect on = cell growth or viability; technique = ATP luminescence; quantity = CC50; result = 14.9 µM
Structure (SMILES) = COc1ccc(O)c(-c2nc(-c3ccccc3)c(-c3ccccc3)n2-c2ccccc2)c1; technique = colorimetric viability; concentration = concentration not given; time = 72 h; notes = at anti-Trypanosoma effective doses; quantity = cytotoxicity; result = not toxic
